Assay results of several laboratories.
Every numbered part comes from another study and shows a few of its results, in no order.
Sequence of UniProt P00519 (whole entry, unmodified, looked up): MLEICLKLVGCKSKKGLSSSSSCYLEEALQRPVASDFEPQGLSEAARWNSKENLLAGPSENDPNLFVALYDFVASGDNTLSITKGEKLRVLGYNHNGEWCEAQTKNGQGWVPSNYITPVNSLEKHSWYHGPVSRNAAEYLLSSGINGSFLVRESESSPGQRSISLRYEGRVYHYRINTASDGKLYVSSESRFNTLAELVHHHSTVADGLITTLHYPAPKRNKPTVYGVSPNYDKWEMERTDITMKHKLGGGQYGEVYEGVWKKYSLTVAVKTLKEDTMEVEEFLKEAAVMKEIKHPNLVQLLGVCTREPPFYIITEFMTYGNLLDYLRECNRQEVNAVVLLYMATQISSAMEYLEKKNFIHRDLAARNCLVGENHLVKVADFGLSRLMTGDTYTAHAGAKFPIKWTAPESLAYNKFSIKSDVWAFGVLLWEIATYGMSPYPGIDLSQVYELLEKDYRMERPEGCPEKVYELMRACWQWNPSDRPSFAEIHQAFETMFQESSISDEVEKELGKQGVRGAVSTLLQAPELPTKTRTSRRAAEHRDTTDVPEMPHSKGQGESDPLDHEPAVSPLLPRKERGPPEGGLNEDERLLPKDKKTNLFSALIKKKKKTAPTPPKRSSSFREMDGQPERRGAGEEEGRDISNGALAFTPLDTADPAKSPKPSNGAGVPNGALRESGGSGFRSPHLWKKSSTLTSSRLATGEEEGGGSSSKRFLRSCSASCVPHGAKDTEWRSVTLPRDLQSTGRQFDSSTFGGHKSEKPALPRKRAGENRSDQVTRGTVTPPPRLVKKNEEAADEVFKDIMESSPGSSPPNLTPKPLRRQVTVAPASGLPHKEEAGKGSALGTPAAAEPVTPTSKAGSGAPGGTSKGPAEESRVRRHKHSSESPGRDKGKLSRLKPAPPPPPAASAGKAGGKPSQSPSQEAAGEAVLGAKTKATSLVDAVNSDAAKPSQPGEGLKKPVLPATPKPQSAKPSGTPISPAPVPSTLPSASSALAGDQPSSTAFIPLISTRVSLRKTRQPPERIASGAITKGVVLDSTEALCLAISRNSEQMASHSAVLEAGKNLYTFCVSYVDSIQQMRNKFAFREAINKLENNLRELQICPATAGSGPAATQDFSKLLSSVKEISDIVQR
Sequence of UniProt Q9H2G2 (whole entry, looked up): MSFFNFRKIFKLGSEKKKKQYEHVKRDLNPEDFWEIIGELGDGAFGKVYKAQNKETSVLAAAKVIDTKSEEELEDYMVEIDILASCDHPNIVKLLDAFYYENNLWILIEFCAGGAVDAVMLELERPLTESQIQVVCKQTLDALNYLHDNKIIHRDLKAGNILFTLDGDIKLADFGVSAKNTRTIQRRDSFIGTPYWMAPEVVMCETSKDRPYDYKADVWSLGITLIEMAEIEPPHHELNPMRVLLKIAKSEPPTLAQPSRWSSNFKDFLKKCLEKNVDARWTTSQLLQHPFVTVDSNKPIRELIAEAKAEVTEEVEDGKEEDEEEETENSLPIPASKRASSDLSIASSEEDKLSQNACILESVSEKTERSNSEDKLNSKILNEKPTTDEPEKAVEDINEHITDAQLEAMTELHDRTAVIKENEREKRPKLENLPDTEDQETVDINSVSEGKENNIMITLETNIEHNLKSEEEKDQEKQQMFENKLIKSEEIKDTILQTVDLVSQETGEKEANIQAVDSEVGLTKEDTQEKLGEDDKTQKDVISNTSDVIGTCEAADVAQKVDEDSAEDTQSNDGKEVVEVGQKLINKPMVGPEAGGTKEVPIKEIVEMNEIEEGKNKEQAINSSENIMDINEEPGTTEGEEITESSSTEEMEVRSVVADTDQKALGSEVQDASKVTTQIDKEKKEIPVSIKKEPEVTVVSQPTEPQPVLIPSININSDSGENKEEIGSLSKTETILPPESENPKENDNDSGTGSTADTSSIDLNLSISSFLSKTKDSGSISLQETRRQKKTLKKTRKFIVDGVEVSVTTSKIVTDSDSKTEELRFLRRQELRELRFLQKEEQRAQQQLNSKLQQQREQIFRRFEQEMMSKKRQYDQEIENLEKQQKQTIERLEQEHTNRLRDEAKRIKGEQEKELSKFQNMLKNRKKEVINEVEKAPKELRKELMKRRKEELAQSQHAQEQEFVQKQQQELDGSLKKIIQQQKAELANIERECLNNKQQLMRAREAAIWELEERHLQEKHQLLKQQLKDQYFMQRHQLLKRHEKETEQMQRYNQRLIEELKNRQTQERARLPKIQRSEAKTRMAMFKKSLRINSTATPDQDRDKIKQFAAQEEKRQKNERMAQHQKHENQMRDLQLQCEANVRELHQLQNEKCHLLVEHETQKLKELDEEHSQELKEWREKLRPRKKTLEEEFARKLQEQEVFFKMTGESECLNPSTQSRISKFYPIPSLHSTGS
Sequence of UniProt P35968 (whole entry, looked up): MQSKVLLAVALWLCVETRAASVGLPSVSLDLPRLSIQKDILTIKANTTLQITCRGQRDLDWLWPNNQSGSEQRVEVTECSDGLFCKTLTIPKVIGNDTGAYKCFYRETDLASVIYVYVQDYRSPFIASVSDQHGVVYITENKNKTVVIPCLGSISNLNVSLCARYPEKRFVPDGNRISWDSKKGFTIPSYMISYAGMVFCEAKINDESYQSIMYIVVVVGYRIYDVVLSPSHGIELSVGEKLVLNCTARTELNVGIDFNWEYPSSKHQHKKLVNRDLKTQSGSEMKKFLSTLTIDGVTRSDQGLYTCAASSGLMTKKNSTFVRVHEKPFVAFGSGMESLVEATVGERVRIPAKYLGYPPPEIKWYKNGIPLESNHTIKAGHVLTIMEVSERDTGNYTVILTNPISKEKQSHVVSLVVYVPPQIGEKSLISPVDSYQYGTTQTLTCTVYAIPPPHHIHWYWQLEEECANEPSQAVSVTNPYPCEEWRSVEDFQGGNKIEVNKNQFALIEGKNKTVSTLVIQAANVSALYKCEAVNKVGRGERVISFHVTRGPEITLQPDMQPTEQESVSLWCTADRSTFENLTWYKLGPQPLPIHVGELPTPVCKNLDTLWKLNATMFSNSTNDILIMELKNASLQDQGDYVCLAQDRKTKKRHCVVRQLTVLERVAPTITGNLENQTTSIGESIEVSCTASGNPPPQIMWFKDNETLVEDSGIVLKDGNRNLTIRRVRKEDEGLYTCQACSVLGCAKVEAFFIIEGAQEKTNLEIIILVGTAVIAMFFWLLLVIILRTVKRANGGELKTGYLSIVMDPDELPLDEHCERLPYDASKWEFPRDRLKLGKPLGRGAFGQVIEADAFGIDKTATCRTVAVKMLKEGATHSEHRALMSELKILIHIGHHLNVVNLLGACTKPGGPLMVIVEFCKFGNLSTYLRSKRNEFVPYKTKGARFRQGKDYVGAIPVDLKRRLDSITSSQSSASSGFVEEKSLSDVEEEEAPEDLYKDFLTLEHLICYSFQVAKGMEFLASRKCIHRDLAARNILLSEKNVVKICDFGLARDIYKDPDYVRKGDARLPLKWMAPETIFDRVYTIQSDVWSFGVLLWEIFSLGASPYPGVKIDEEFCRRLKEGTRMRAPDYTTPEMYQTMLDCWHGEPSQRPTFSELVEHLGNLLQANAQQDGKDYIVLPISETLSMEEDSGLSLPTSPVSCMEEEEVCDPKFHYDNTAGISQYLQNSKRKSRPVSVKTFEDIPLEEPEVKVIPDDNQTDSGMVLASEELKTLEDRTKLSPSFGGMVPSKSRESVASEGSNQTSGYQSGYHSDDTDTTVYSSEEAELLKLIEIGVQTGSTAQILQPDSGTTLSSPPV
Sequence of UniProt P49841 (whole entry, looked up): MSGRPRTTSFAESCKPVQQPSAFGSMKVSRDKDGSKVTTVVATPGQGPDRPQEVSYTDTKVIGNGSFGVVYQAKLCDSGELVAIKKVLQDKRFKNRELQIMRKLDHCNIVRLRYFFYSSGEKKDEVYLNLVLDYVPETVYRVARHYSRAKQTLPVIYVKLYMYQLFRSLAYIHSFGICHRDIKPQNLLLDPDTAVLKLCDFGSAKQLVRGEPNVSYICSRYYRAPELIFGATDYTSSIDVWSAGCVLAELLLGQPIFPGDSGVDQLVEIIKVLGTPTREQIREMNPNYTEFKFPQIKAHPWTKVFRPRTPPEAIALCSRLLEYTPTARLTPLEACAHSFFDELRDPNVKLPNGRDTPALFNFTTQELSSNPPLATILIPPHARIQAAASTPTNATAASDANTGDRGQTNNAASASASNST
Sequence of UniProt Q9UK32 (whole entry, looked up): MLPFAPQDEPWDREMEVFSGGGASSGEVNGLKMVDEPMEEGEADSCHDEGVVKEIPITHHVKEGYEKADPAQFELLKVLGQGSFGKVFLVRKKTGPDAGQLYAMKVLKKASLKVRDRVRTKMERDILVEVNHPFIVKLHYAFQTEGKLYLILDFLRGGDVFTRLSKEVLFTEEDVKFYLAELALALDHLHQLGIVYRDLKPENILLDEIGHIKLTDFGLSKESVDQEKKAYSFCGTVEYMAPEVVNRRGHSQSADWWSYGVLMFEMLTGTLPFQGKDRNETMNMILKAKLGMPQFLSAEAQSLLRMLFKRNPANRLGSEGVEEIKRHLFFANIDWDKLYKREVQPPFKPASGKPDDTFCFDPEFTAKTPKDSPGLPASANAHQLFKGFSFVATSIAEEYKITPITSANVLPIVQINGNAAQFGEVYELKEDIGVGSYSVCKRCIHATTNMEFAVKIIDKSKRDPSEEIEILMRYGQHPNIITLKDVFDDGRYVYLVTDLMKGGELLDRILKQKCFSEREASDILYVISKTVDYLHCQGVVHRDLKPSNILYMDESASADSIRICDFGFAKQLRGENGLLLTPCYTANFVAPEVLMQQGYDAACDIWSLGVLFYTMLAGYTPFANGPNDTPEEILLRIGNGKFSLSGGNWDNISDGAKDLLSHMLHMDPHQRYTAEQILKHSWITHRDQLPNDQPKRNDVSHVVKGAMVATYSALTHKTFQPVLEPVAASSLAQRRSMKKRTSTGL

Set 1
Target: MAP/microtubule affinity-regulating kinase 3 (MARK3, Homo sapiens, UniProt P27448)
Read-out: enzyme activity
Action: inhibitor
Concentration: 0.5 µM
Baseline: control
Target sequence (P27448 1-753): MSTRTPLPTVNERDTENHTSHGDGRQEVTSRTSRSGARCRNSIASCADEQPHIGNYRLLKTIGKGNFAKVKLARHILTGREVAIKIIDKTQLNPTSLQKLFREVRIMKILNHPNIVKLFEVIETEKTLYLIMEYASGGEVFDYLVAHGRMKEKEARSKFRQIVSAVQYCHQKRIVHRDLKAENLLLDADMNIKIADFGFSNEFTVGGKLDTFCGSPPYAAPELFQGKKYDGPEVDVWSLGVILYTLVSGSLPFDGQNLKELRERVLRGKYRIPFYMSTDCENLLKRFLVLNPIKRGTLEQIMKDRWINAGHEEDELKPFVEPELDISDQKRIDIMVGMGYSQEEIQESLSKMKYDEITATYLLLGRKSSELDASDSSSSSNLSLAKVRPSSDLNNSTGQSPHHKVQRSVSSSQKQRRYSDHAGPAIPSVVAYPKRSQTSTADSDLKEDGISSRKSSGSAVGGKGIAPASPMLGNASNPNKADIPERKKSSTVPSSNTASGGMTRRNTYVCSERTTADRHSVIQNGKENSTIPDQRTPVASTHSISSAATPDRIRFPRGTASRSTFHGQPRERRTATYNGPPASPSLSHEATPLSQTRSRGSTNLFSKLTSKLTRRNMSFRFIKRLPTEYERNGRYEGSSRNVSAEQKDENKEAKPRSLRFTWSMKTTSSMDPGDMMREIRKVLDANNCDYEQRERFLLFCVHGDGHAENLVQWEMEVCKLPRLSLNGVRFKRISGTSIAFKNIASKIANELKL
| Compound | remaining activity [%] |
| --- | --- |
| COc1cc2ncnc(Nc3cccc(Cl)c3)c2cc1OC | 89.8 |
| COc1cc2c(cc1OC)-c1[nH]nc(Nc3cccc(F)c3)c1C2 | 69.9 |
| CCN(CC)CCNC(=O)c1c(C)[nH]c(/C=C2\C(=O)Nc3ccc(Cl)cc32)c1C | 7.86 |
| CN(C)C[C@H]1CCn2c(c(C3=C(c4cn(C)c5ccccc45)C(=O)NC3=O)c3ccccc32)C1 | 92.3 |
| O=C1C(Cl)=C(N2C(=O)CCC2=O)C(=O)c2ccccc21 | 87.8 |
| c1ccc(-c2cnc(Nc3ccc(OCCN4CCCC4)cc3)s2)cc1 | 93.1 |
| O=C(NC(NC(=S)Nc1ccc(F)c([N+](=O)[O-])c1)C(Cl)(Cl)Cl)C(c1ccccc1)c1ccccc1 (stereo not drawn) | 104 |
| c1ccc(-c2[nH]ncc2-c2ccnc3ccccc23)nc1 | 87.5 |
| O=C1c2ccccc2-c2n[nH]c3cccc1c23 | 72.2 |
| O=c1cc(-c2cccc3c2Sc2ccccc2S3)oc(N2CCOCC2)c1 | 106 |
| O=C(Nc1cccc(Nc2nccc(Nc3cccc(C(F)(F)F)c3)n2)c1)C1CC1 | 102 |
| Cc1cc2ncc(-c3ccccc3)nc2cc1C | 101 |
| N#Cc1c(NC(=O)c2cccc3ccccc23)sc2c1CCCC2 | 97.1 |
| Nc1cccc(-c2cc3c(Oc4cccc(O)c4)ncnc3[nH]2)c1 | 77.5 |
| CCOc1nc(NC(=O)Cc2cc(OC)ccc2OC)cc(N)c1C#N | 94.8 |
| N#C/C(=C\c1ccc(O)c(O)c1)C(=O)NCc1ccccc1 | 97.5 |
| COc1cc2ncnc(Nc3ccc(O)c(Br)c3)c2cc1OC | 98.8 |
| Ic1cccc(CSc2nnc(-c3ccncc3)o2)c1 | 124 |
| C[C@@H]1CCN(C(=O)CC#N)C[C@@H]1N(C)c1ncnc2[nH]ccc12 | 78.6 |
| Cn1nc2c3c(cccc31)C(=O)c1ccccc1-2 | 96.6 |
| CCN(CC)C(=O)c1ccc(Nc2nc(OCC3CCCCC3)c3[nH]cnc3n2)cc1 | 85.4 |
| Cc1cn(-c2cc(NC(=O)c3ccc(C)c(Nc4nccc(-c5cccnc5)n4)c3)cc(C(F)(F)F)c2)cn1 | 93.8 |
| Cc1nc2cc3nc(-c4cccs4)cnc3cc2n1C | 105 |

Set 2
SMILES: CCOC(=O)c1cc2cc(-c3cc(C(=O)NCc4ccc(C(=O)O)cc4)nn3C)ccc2[nH]1
Read-out: cell-free assay
Method: competition with immobilised ligand
Concentration: 0.1 µM
| target | remaining binding [%] |
| --- | --- |
| PRKCH (Homo sapiens, UniProt P24723) | 87 |
| Ribosomal protein S6 kinase alpha-3, C-terminal kinase domain (RPS6KA3, Homo sapiens, UniProt P51812) | 80 |
| Receptor-type tyrosine-protein kinase FLT3, autoinhibited (FLT3, Homo sapiens, UniProt P36888) | 98 |
| RIOK1 (Homo sapiens, UniProt Q9BRS2) | 96 |
| PAK3 (Homo sapiens, UniProt O75914) | 77 |
| MAP3K2 (Homo sapiens, UniProt Q9Y2U5) | 100 |
| CAMK1 (Homo sapiens, UniProt Q14012) | 87 |
| Tyrosine-protein kinase ABL1, phosphorylated (ABL1, Homo sapiens, UniProt P00519) | 94 |
| ERN1 (Homo sapiens, UniProt O75460) | 90 |
| FGR (Homo sapiens, UniProt P09769) | 94 |
| EGFR (Homo sapiens, UniProt P00533, G719S) | 100 |

Set 3
SMILES: Cc1nc(Nc2ncc(C(=O)Nc3c(C)cccc3Cl)s2)cc(N2CCN(CCO)CC2)n1
Action: inhibitor
Concentration: 10 µM
| target | inhibition |
| --- | --- |
| PRKCQ (Homo sapiens, UniProt Q04759) | < 50% |
| PAK6 (Homo sapiens, UniProt Q9NQU5) | < 50% |
| Aurora kinase B (AURKB, Homo sapiens, UniProt Q96GD4) | < 50% |
| SLK (Homo sapiens, UniProt Q9H2G2) | 97% |
| Ribosomal protein S6 kinase alpha-6, N-terminal kinase domain (RPS6KA6, Homo sapiens, UniProt Q9UK32) | < 50% |
| MAP2K2 (Homo sapiens, UniProt P36507) | 98% |
| RET (Homo sapiens, UniProt P07949, V804L) | < 50% |
| CSK (Homo sapiens, UniProt P41240) | 98% |

Set 4
SMILES: COc1ccc2[nH]c3c4[nH]c5ccc(OC)cc5c4c4c(c3c2c1)C(=O)NC4=O
Concentration: 1 µM
| target | test | conditions | scale | remaining binding |
| --- | --- | --- | --- | --- |
| HIPK1 (Homo sapiens, UniProt Q86Z02) | competitive binding panel |  | baseline: vehicle | 56% |
| MUSK (Homo sapiens, UniProt O15146) | competitive binding panel |  | baseline: vehicle | 83% |
| PI4KB (Homo sapiens, UniProt Q9UBF8) | competitive binding panel, measured: PIK4CB |  | baseline: vehicle | 100% |
| GSK3B (Homo sapiens, UniProt P49841) | competitive binding panel |  | baseline: vehicle | 68% |
| KDR (Homo sapiens, UniProt P35968) | competitive binding | VEGFR2 |  | 59% |
| CSNK1A1 (Homo sapiens, UniProt P48729) | competitive binding panel |  | baseline: vehicle | 62% |
| ABL1 (Homo sapiens, UniProt P00519, F317I) | competitive binding scan |  |  | 73% |
| NTRK3 (Homo sapiens, UniProt Q16288) | competitive binding | TRKC |  | 47% |

Further values, each from its own experiment
| Structure (SMILES) | test | system | conditions | measurement | result |
| --- | --- | --- | --- | --- | --- |
| CC(C)n1cnc(-c2ccc(F)cc2)c1-c1ncc(C(=O)Nc2ccc(N3CCN(C)CC3)cc2)[nH]1 | phase 2a clinical trial | patients with idiopathic pulmonary fibrosis | 30 mg once daily | patients with immunoglobulins increased TEAE | 0% |

Repeated from above (set 1):
| Compound | remaining activity [%] |
| --- | --- |
| c1ccc(-c2cnc(Nc3ccc(OCCN4CCCC4)cc3)s2)cc1 | 93.1 |
| O=C(NC(NC(=S)Nc1ccc(F)c([N+](=O)[O-])c1)C(Cl)(Cl)Cl)C(c1ccccc1)c1ccccc1 (stereo not drawn) | 104 |
| c1ccc(-c2[nH]ncc2-c2ccnc3ccccc23)nc1 | 87.5 |
| O=C1c2ccccc2-c2n[nH]c3cccc1c23 | 72.2 |
| O=c1cc(-c2cccc3c2Sc2ccccc2S3)oc(N2CCOCC2)c1 | 106 |
| O=C(Nc1cccc(Nc2nccc(Nc3cccc(C(F)(F)F)c3)n2)c1)C1CC1 | 102 |
| Cc1cc2ncc(-c3ccccc3)nc2cc1C | 101 |
| N#Cc1c(NC(=O)c2cccc3ccccc23)sc2c1CCCC2 | 97.1 |
